Assay results from different studies.
Protocols differ between the studies behind these lines. Numbers after ± are the reported error.

The chains behind the UniProt entries cited, without tags or fusion partners. Residues count along the entry.
UniProt P30561, 10-848 limits assumed: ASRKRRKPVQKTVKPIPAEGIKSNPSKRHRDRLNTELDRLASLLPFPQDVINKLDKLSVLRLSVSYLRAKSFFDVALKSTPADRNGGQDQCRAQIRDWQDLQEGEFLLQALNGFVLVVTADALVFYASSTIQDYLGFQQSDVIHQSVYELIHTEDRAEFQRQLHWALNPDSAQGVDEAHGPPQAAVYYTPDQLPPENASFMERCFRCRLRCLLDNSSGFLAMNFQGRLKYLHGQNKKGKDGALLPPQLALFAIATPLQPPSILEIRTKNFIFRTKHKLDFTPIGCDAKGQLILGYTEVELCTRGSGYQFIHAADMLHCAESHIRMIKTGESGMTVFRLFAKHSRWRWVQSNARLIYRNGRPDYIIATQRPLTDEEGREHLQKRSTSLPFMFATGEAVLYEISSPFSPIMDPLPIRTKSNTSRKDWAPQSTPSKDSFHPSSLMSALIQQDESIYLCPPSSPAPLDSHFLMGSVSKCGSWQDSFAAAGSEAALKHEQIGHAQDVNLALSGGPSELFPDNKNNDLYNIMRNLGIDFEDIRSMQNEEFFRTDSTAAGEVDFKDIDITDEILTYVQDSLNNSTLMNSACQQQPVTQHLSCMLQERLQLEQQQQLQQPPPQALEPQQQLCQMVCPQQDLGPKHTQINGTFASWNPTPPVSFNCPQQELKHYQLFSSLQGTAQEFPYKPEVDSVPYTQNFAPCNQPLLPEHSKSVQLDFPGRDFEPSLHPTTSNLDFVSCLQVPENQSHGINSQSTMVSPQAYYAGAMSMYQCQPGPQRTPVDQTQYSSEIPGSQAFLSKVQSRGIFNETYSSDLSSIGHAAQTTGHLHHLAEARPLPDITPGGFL
UniProt P17787, 26-502 limits assumed: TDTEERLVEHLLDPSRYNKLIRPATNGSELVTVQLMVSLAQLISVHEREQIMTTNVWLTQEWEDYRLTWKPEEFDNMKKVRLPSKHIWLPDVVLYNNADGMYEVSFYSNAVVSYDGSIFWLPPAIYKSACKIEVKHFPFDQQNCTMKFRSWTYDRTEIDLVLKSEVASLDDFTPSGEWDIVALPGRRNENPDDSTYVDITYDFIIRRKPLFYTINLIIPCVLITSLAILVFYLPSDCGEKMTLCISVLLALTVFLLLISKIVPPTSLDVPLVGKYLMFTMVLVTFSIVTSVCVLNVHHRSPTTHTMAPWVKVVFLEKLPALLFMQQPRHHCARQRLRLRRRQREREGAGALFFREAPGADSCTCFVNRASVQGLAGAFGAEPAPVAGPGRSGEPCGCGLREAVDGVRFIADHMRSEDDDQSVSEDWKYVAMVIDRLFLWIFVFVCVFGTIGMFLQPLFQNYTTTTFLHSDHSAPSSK
UniProt Q15822, 27-529 limits assumed: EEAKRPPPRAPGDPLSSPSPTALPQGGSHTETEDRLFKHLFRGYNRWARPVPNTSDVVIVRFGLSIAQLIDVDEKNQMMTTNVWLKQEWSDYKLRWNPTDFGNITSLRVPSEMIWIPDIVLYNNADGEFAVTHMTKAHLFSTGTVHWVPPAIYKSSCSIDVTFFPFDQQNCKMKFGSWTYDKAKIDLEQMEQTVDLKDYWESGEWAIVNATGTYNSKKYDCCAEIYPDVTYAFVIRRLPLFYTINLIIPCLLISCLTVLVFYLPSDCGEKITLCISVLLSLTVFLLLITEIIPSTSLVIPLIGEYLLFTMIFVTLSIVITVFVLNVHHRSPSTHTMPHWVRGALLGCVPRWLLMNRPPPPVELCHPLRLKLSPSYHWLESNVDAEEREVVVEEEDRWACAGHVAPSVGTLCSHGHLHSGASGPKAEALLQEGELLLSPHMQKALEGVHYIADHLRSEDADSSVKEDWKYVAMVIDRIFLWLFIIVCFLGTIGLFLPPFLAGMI
UniProt Q9Y5Y6, 615-854 F708A limits assumed: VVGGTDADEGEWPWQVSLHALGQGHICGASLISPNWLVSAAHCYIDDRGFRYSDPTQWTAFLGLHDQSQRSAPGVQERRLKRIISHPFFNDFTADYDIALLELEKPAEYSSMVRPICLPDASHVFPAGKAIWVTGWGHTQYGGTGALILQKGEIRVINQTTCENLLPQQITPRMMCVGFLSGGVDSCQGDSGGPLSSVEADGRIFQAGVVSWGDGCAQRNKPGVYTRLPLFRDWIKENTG
UniProt Q08210, whole entry, looked up: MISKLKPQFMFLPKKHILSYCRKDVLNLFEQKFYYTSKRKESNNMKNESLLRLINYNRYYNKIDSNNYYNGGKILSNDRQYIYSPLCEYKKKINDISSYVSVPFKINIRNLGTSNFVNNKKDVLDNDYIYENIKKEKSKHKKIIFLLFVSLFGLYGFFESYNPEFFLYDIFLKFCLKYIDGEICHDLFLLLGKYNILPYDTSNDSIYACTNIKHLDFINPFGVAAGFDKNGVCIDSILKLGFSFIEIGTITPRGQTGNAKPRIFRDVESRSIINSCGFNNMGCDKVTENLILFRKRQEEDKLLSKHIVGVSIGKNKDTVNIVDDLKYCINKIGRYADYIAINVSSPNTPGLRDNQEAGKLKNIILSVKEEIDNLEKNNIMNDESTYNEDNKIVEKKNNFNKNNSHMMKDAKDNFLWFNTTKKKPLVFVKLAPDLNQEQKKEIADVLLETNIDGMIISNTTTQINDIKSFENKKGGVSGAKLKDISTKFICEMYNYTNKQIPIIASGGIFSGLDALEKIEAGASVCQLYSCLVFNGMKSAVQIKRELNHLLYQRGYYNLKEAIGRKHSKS
UniProt P62136, whole entry: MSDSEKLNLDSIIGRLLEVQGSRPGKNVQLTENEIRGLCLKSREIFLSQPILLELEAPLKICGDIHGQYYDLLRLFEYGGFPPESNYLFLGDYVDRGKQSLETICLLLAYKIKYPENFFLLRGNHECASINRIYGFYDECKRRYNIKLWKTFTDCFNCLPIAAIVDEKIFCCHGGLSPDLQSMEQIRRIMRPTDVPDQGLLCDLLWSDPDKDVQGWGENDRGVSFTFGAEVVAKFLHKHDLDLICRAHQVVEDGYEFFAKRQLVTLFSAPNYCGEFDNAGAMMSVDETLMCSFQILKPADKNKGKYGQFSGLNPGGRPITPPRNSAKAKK
UniProt P17301, 30-1181 limits assumed: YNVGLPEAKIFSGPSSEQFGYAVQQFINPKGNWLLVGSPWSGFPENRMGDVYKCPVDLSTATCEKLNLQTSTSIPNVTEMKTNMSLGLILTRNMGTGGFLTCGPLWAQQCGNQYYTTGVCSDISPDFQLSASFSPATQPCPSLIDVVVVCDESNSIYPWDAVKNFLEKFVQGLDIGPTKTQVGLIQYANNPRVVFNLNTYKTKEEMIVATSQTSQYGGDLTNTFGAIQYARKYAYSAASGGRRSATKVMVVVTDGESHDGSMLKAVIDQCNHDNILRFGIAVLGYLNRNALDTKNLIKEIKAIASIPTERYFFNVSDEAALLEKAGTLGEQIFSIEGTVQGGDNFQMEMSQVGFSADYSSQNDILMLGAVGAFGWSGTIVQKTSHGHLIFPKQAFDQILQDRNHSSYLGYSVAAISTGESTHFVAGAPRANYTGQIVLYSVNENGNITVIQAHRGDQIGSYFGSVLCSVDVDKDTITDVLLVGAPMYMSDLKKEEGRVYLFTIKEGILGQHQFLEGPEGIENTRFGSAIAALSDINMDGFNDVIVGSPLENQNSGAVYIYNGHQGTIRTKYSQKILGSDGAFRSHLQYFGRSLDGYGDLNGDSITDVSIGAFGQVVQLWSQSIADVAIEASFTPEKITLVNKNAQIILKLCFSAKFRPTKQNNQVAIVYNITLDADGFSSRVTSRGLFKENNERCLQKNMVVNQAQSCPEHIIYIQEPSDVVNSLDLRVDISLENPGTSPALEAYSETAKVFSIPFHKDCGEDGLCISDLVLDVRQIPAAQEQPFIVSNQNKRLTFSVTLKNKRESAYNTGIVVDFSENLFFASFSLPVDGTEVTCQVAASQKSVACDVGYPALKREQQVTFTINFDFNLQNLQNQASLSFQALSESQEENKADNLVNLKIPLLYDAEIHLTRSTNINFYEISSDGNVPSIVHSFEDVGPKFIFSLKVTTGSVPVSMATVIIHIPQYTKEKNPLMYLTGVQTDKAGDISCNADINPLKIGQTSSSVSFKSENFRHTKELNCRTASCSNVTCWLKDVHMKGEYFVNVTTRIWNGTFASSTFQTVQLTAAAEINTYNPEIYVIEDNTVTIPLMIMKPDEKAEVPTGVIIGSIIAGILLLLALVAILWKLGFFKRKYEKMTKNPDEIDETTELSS
UniProt P09252, whole entry: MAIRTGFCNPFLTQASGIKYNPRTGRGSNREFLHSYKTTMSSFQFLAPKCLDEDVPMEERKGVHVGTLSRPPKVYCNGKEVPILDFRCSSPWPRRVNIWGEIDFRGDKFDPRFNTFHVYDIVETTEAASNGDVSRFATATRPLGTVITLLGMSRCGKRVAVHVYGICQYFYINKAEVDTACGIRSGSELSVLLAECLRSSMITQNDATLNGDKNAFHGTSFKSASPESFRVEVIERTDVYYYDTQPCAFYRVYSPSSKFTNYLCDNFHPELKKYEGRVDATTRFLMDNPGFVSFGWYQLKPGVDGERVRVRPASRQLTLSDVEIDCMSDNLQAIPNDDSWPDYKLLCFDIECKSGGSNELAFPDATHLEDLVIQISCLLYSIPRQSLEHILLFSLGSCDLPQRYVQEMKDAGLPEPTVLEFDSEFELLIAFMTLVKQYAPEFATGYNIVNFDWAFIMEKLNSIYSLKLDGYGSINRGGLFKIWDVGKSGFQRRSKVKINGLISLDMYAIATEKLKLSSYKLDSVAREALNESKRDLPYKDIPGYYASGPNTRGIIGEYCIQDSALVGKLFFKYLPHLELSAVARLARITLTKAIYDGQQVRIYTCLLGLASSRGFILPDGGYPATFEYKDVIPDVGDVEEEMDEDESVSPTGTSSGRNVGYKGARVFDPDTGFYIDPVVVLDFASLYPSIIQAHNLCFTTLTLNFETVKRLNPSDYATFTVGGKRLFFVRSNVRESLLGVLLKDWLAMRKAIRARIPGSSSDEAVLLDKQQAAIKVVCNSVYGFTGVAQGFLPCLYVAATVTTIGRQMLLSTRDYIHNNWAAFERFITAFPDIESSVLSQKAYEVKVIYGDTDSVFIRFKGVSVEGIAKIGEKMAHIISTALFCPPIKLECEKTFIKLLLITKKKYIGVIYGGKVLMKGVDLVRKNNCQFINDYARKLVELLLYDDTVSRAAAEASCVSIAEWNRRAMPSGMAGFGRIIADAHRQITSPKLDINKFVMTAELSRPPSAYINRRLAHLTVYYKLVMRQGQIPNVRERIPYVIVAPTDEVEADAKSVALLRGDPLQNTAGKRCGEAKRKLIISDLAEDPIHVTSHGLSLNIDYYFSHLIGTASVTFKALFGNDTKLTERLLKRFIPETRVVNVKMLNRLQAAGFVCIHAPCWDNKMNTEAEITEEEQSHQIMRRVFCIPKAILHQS
UniProt P14340, 281-571 limits assumed: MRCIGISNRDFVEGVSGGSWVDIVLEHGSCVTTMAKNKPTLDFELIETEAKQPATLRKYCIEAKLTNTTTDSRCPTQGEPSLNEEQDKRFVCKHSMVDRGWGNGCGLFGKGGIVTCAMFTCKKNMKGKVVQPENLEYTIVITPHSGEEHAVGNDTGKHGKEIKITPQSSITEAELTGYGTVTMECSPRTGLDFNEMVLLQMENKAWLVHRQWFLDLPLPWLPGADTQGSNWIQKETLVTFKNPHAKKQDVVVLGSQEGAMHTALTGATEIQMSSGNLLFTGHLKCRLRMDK
UniProt P37136, 32-574 limits assumed: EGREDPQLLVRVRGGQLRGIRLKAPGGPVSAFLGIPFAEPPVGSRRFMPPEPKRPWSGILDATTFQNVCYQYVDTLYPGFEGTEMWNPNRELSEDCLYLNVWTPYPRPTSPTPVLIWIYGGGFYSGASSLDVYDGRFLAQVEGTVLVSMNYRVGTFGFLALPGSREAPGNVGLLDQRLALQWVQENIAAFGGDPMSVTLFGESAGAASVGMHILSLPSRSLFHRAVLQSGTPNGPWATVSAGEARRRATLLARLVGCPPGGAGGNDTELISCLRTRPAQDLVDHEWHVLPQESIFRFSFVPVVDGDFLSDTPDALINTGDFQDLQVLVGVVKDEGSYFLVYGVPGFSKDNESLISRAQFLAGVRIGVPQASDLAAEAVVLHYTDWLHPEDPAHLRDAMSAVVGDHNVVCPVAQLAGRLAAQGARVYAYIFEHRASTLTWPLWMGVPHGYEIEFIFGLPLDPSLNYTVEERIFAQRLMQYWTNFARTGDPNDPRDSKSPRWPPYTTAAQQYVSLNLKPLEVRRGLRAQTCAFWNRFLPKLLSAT

| Compound | tested on | assay | system | setting | measurement | value |
| --- | --- | --- | --- | --- | --- | --- |
| N#Cc1c(-c2ccc(Cl)cc2Cl)n(-c2nc(-c3ccc(Cl)cc3)c3c(NC(=O)c4ccccc4)nnc-3[nH]2)[nH]c1=O | SK-MEL-5 | SRB |  |  | CC50 | > 100 µM |
| COc1cc(C2C(C#N)=C(N)Oc3c2c(C)nn3-c2ccc(Cl)cc2)ccc1O (centres unmarked) | Vero E6 |  |  | 6.3 µM | viability | 68.6% |
| O=[N+]([O-])c1cc(C(F)(F)F)ccc1NCc1ccsc1 | Ahr (Mus musculus, UniProt P30561) | radioligand binding | in vitro synthesised receptor | added: [3H]TCDD | IC50 | 0.63 µM |
| CN(C(=S)SSC(=S)N(C)C1CCS(=O)(=O)C1)C1CCS(=O)(=O)C1 (centres unmarked) | PTPN22 (Homo sapiens, UniProt Q9Y2R2) | phosphatase activity, inhibitor |  | pH 6.5, enzyme 5 nM, added: DiFMUP 1.5 µM | IC50 | 34 ± 3 µM |
| CC[C@H](C)[C@@H]1NC(=O)[C@H](CCC(=O)O)NC(=O)[C@@H]2CCCN2C(=O)[C@H](Cc2c[nH]cn2)NC(=O)[C@H](CCCNC(=N)N)NC(=O)[C@H](C(C)C)NC(=O)[C@H](CC(N)=O)NC(=O)[C@@H]2CSSC[C@H](NC(=O)CN)C(=O)N[C@@H](CSSC[C@@H](C(N)=O)NC1=O)C(=O)N[C@@H](CO)C(=O)N[C@@H](Cc1c[nH]cn1)C(=O)N1CCC[C@H]1C(=O)N[C@@H](C(C)C)C(=O)N2 | Neuronal acetylcholine receptor; alpha2/beta2 (Homo sapiens, UniProt P17787+Q15822) | ion current, antagonist, two-electrode voltage clamp | Xenopus oocytes | human, added: ACh 100 µM | IC50 | > 10 µM |
| N=C(N)c1ccc(C(NC(=O)COCC(=O)NCCCOCCOCCOCCCNC(=O)CCCC[C@@H]2SC[C@@H]3NC(=O)N[C@@H]32)P(=O)(Oc2ccccc2)Oc2ccccc2)cc1 (some centres unmarked) | ST14 (Homo sapiens, UniProt Q9Y5Y6, F708A) | enzyme activity, inhibitor |  | 4 h preincubation | IC50 | 1.5 ± 0.04 µM |
| COc1ccc(NC(=O)C2C3CCC(O3)C2C(=O)O)c(OC)c1 (centres unmarked) | Serine/threonine-protein phosphatase 5 (Homo sapiens, UniProt P53041) | inhibitor, fluorescence |  | added: DiFMUP substrate | IC50 | 4.16 ± 0.2 µM |
| O=C(CSc1nccn1C1CCCCC1)Nc1cc(C(F)(F)F)ccc1Cl | PFF0160c (Plasmodium falciparum, UniProt Q08210) | enzyme activity, inhibitor, DCIP colorimetric |  |  | IC50 | 0.701 ± 0.14 µM |
| Cc1cc(I)cc(C)c1Oc1ccnc(Nc2ccc(C#N)cc2)n1 | Gag-Pol polyprotein, reverse transcriptase (gag-pol, Human immunodeficiency virus 1, UniProt P03366) | dTTP incorporation (correct pair), inhibitor |  | 15 min, 37 °C, added: dNTP 5 µM | IC50 | 0.013 µM |
| CN1CCN(C(c2ccccn2)c2cc(Cl)c3cccnc3c2O)CC1 (centres unmarked) | PPP1CA (Homo sapiens, UniProt P62136) | phosphatase activity, inhibitor |  | preincubation ~10 min at 23 °C, added: radiolabelled phosphorylase A | IC50 | 4.9 ± 0.2 µM |
| C[C@@H]1NC(=O)[C@H](CCC(=O)O)NC(=O)CNC(=O)[C@H](CC(=O)O)NC(=O)CNC(=O)[C@H](CCCCN)NC(=O)[C@@H](Cc2ccc(O)cc2)NC1=O [isotope labelled] | Integrin alpha2/beta1 (Homo sapiens, UniProt P05556+P17301) | binding, competitive cell binding | A549 | 1 h, pH 7.4, room temperature, added: 68Ga-DOTA-A2B1 | IC50 | 3.72 ± 0.21 µM |
| CCOC(=O)c1c(-c2ccc(Cl)cc2Cl)n(-c2nc(-c3ccc(Cl)cc3)c3c(NC(=O)c4ccccc4)nnc-3[nH]2)[nH]c1=O | A498 | SRB |  |  | CC50 | 5.25 µM |
| Oc1ccc(Cl)cc1Sc1cc(Cl)ccc1O | P4HB (Homo sapiens, UniProt P07237) |  |  |  | IC50 | > 100 µM |
| Cc1cn([C@@H]2CC[C@H](OC(C(=O)O)P(=O)(O)O)C2)c(=O)[nH]c1=O (relative stereo) | DNA polymerase catalytic subunit (Varicella-zoster virus, UniProt P09252) | enzyme activity, inhibitor |  | added: poly(dA)·oligo(dT) | IC50 | 38 ± 16 µM |
| Cc1nn(-c2ccc(Cl)cc2)c2c1C(c1cc(Cl)ccc1Cl)C(C#N)=C(N)O2 (centres unmarked) | Vero E6 |  |  | 0.4 µM | viability | 94.1% |
| COC(=O)c1cc(Cl)ccc1NC(=O)CSc1ncc(S(=O)(=O)c2ccc(Br)cc2)c(=O)[nH]1 | Genome polyprotein, envelope domains I-II (Dengue virus type 2, UniProt P14340) |  |  |  | IC50 | 4.3 µM |
| COP(=O)(OC)Oc1ccc([N+](=O)[O-])cc1Cl | Ache (Rattus norvegicus, UniProt P37136) | enzyme activity, inhibitor, discontinuous Ellman | rat, postnatal day 12, rat lung homogenate | 15 min, 37 °C | IC50 | 0.1 µM |

For quick reference, copied from above:
| Compound | tested on | assay | system | setting | measurement | value |
| --- | --- | --- | --- | --- | --- | --- |
| CN1CCN(C(c2ccccn2)c2cc(Cl)c3cccnc3c2O)CC1 (centres unmarked) | PPP1CA (Homo sapiens, UniProt P62136) | phosphatase activity, inhibitor |  | preincubation ~10 min at 23 °C, added: radiolabelled phosphorylase A | IC50 | 4.9 ± 0.2 µM |
